Measurements pooled from the literature.
Numbered parts are unrelated; each lists some results of a single study. Changes are numbered by the printed parent chain.

Block 1
Target: Histone acetyltransferase KAT6A, winged helix 1, GST fusion (KAT6A, Homo sapiens, UniProt Q92794, residues 1-85)
Technique: protein binding microarray
Form: double-stranded DNA, one strand shown
Sample: in vitro
Concentration: not given
Notes: 8-mer, flanks averaged, mean of 2 arrays, mostly near background
Relative to: not given
Reading: higher = stronger binding
Construct (chain): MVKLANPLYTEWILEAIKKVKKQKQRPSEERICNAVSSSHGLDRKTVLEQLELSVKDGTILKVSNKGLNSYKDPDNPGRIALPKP
Strand | E-score
AAATCCAA | -0.145
CCGCCGAC | 0.408
ATAGGTAC | 0.0307
CGTTATCA | -0.0446
GCGCCCCC | 0.29
AATCTTAT | -0.0636
CTGTAACC | 0.0564
GGTGAGAA | -0.115
CGGCTCTC | 0.254
GCAGCAAC | -0.02
AGTTAGGA | -0.151
AAGTCCCA | -0.0889
CAAAATTA | 0.0158
ACTGTACT | -0.129
GAAGGTCC | -0.014

Block 2
Target: RING finger protein unkempt homolog, zinc fingers 1-6, GST-SBP tag (UNK, Homo sapiens, UniProt Q9C0B0, residues 30-357)
Chain of UniProt Q9C0B0 (30-357, looked up): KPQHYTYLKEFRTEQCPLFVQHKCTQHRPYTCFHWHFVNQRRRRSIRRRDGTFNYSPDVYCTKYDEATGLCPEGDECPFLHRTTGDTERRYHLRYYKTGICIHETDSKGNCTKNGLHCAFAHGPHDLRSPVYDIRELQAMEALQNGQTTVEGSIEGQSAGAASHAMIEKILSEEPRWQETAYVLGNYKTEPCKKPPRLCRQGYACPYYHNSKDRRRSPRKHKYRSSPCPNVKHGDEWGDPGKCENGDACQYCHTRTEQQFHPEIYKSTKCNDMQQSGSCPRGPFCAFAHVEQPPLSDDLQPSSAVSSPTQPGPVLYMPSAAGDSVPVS
Technique: RNA Bind-n-Seq
Form: RNA
Sample: in vitro
Concentration: not given
Notes: RNA with constant flanks, human and mouse sites, ends assumed
Relative to: input RNA pool
Reading: higher = stronger binding
Shared flanks, not repeated: GGGAGUUCUACAGUCCGACGAUC … CAACAGAGGAUUGAGCAUCA
Strand | bound/input enrichment
AUGGCUUGGCUCAAGCAACAAUUUUCAGAGUGCACCCUCAUUGAUGCUACUCACAGAGACGUGGAUGUGCUGUUACUGCUUUCUAACUCUGCCUACUACGUGGCCUAUUAUGAUGAUGAA | 0.213 ratio
AUGAACUUUCAGGCAACACUGUUAUUAAAUGACCCAGACAGACCUGUCCUUAUAUAAUUGUAGCUUUUCAGCACAAGGAUCCUAAAAGAUGGCAGCACCCACUUCUAAAAUCAUACUUGA | 0.134 ratio
ACCGGGAAAACCUGUGUGUUCUCCACCAUAGCUUUGGACUCUCUUGUUCUUGAAAACUUAAGUACCCAGAUUUUGAUCUUGGCUCCUACAAGAGAAAUUGCUGUACAGAUACAUUCUGUU | 0.114 ratio
GAUGCUGGGCAGUUUUAUGCAAAAUAUAAGGAGACAAAAUUGAAGGAAAAAGAAGACGCACUGGCUAGAAUUGAAAUUGAAACCCUUCAAAAACAGAAGAAAGUUAAAGUUAAAAAACCA | 0.912 ratio
CUCCAGGACUCAGUGAUGGAGGCCAGCAGAACAACCAUAGAAGAAUCAGCCAUGCCCCCACCACCCCCUCAAGGAGUUAAGCGGAAAGCCGGGCAAAUAGACCCAGAGCCUUCGAUACCU | 1.3 ratio
GCCUGCCGACCUUUGACCAUAACGGAAUUAUAUCACGCAGUAUGGACCAAAAACAUGUCGUUAACUUUGGAAGAUUUUCAACGCAAGUUAGAUAUCCUCUCCAAACUUCUUGUUGAUGGA | 0.159 ratio
CUCACAAACAGCCAUUUGGAAAAAAAGAAGUGUGAUGAGUAUAUUCCAGGUACAACCUCCUUAGGCAUGUCUGUUUUUAACCUAAGCAACGCCAUUAUGGGCAGUGGGAUUUUGGGACUC | 0.444 ratio
CUCUGUAAACAGUUUGGUUCUUAGUCCUUCUCUUGUACAAAUGAUGUACUUUGAAGACCGUUAGUGUAUAACAGAGUUGUUUGUUUCCUCUUUGAUUUUAAACAGAGAAAAUAAAAGGAG | 0.689 ratio

Block 3
Target: CCNA2, cyclin fold, Cln2 fusion (human)
Technique: yeast growth competition, sequencing
Sample: yeast
Notes: strong parent motif
Relative to: not given
Reading: higher = stronger binding
Parent: CDC6 docking peptide (human); TLKGRRLVFDNQL; partner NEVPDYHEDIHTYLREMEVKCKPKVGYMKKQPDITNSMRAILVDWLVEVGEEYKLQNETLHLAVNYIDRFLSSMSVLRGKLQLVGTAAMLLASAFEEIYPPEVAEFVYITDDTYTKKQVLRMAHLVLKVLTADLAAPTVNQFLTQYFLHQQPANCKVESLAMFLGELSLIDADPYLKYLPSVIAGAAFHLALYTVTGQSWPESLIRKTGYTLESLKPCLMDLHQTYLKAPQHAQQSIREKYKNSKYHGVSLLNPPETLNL
Substitution | normalised enrichment score
ALKGRRLVFDNQL [T1A] | 3.19
TLKGRRLVFQNQL [D10Q] | 0.907
TLKGRRLAFDNQL [V8A] | 0.788
TLKGRRLVFDNSL [Q12S] | 2.4
TLKGRRLVFDNLL [Q12L] | 3.41
TLKGRRLSFDNQL [V8S] | 2.34
TLKGRRLIFDNQL [V8I] | 3.57
ELKGRRLVFDNQL [T1E] | 1.96

Mixed results
Substance | target | assay | system | conditions | how to read | measurement | result
PhoQ, residues 284 288 289 292 302 303 GASLAW | PhoP, residues 12 14 15 18 19 YHFSH (Escherichia coli, UniProt P23836) | Sort-seq, item: YFP reporter | E. coli | PhoQ-PhoP variant library, with: 10 µM Mg2+ | relative to: high Mg2+ state, higher = stronger signaling | fold induction | 7.15

Repeated from above (block 3):
Substitution | normalised enrichment score
TLKGRRLVFDNLL [Q12L] | 3.41
TLKGRRLSFDNQL [V8S] | 2.34
